{"data": "Measurements of several laboratories", "note": "Parts stem from different laboratories: compare values within a part only."}
{"data": "Block 1", "target": "Interferon regulatory factor 5, full length, phosphomimetic (IRF5, Homo sapiens, UniProt Q13568-2, residues 1-514, K96S/S451D/S453D/S456D/S462D)", "method": "protein-binding microarray", "molecule type": "double-stranded DNA, one strand shown", "matrix": "in vitro", "concentration": "250 nM", "notes": "60-bp whole probe", "added": "salmon DNA 0.4 mg/ml", "baseline": "random background probes", "reading": "higher = stronger binding", "all sequences stand within": "GCCTAGCAC … GTCTTGATTCGCTTGACGCTGCTG"}
{"Oligonucleotide": "GCAGGGCTCTCTTCTGCTTCCGTGCTA", "log fluorescence [z-score]": -0.572}
{"Oligonucleotide": "ATATATGTGTATATATAATAGTGCTAG", "log fluorescence [z-score]": 0.54}
{"Oligonucleotide": "TCATGTCCCTATTTAAGACTGTGCTAG", "log fluorescence [z-score]": 0.188}
{"Oligonucleotide": "GGCTGTTTGATCTTGATCCTGTGCTAG", "log fluorescence [z-score]": -0.312}
{"Oligonucleotide": "GACGGACTGGGGACTGGAGACGTGCTA", "log fluorescence [z-score]": -0.76}
{"Oligonucleotide": "AAGACTTTGCTCTGTGCGTAGGTGCTA", "log fluorescence [z-score]": -0.387}
{"Oligonucleotide": "GGAAGTATGACTCTGCCTCTGTGCTAG", "log fluorescence [z-score]": 0.0986}
{"Oligonucleotide": "TTAGGTATCGACTAACGGTTAGTGCTA", "log fluorescence [z-score]": 4.26}
{"Oligonucleotide": "GACGGACTGCTTATCATGACGTGCTAG", "log fluorescence [z-score]": -0.281}
{"Oligonucleotide": "TCAAAAATGGCTTTGCAACTGTGCTAG", "log fluorescence [z-score]": -0.066}
{"Oligonucleotide": "TTAGATATTAAACTGATAGGGTGCTAG", "log fluorescence [z-score]": 0.245}
{"Oligonucleotide": "GTAGGTCTCCTTATCCTTTAGTGCTAG", "log fluorescence [z-score]": -0.254}
{"Oligonucleotide": "GACGGTTTCGGGACTGGGGACGTGCTA", "log fluorescence [z-score]": 4.6}
{"Oligonucleotide": "GACGGACTGCAACTGCTGACGTGCTAG", "log fluorescence [z-score]": -0.475}
{"Oligonucleotide": "GACGGACTGGTCACTGGGGACGTGCTA", "log fluorescence [z-score]": -0.577}
{"Oligonucleotide": "TCATCTTTCGATGCTAAAACTGTGCTA", "log fluorescence [z-score]": 7.87}
{"Oligonucleotide": "GACCTTCACCTCTCTGTCCCCGTGCTA", "log fluorescence [z-score]": -0.171}
{"Oligonucleotide": "TTGGTGCTCATTTTTTTTGCGTGCTAG", "log fluorescence [z-score]": 0.196}
{"Oligonucleotide": "TTGGGACTGGACACTGGGTTAGTGCTA", "log fluorescence [z-score]": -0.504}
{"data": "Block 2", "target": "RNA binding protein fox-1 homolog 2, RRM domain, GST-SBP tag (RBFOX2, Homo sapiens, UniProt O43251-10, residues 100-194)", "method": "RNA Bind-n-Seq", "molecule type": "RNA", "matrix": "in vitro", "concentration": "365 nM", "notes": "natural RNA segment, single round, ends assumed", "baseline": "no-protein control", "reading": "higher = stronger binding", "all sequences stand within": "GGGAGUUCUACAGUCCGACGAUC … UGGAAUUCUCGGGUGCCAA"}
{"Oligonucleotide": "UGUAUUUUUAAAUAUGUUUUAAAAGAACUCAGGAACAAUUUACGUCUCUGUAUCUUUUUUUUACUAUUGUUGUUUUGACCUCAAAGCUGGGAAUAAAAGUCAGAGCCUUA", "RBNS enrichment (R)": 0.417}
{"Oligonucleotide": "GAGGAAAGAGAAAACUCUGGGGUCAGGGAGAGACCCUACCCCCACCUAAUUAUCCAGCAUAUAUGUAAGAAACAUAGCAGCGAUGGUAUUCGAUCUGUGCCAUGACUCUU", "RBNS enrichment (R)": 0.545}
{"Oligonucleotide": "CCUUAACUCAGACCAGGGCCAUGCCUUGCGGGGAGCAGAGAGUGUGUGCACCACACCAAAGGGAGCCCUCCGUUAGUUAGAGGCCAGAGGACGAUGCCAGCCAGAGCCCC", "RBNS enrichment (R)": 0.468}
{"Oligonucleotide": "CUUGCUGACCAAAAACUACUGGAGAGUAACACAGGUUAUAUGCCAUCACAAAUACAAUGCUCAUGAAGAACUGAUUUGUAGAGUCAAUGAACCUGUGUCCAGAAUUUUAA", "RBNS enrichment (R)": 0.393}
{"Oligonucleotide": "UACUUUAUAAUGAUAGAAGUCCAACCGUUUUUUAAAAAAUAAAUUUAAAAUUUAACAGCAAUCAGCUAACAGGCAAAUUAAGAUUUUUACUUCUGGCUGGUGACAGUAAA", "RBNS enrichment (R)": 1.06}
{"Oligonucleotide": "GGUUUCUUUUUUGGAGUCCUGAGUUCAAAGGGGACAGAACUAAGGGCAGGAGAAGAGAAUGGAUGUGUCUUCUCUCCCAUCUUCCCCUCAUCAUCGACCGAGGAGCACAA", "RBNS enrichment (R)": 8.78}
{"Oligonucleotide": "GAAGAAAGUGUCUAUAUUGGAACUAGGGUCAUUUGAAAGCUUCAGUCUCGGAACAUGACCUUUAGUCUGUGGACUCCAUUUAAAAAUAGGUAUGAAUAAGAUGACUAAGA", "RBNS enrichment (R)": 0.859}
{"Oligonucleotide": "GCUGAACCUUUAAUAGGGGACCCUGGGGACCCAGCAGUAGCACGAGGGCUGCACACACAGGGCGGCUCUCUGUGCUGGUCCCUUCGUAGCUCCCCAGACCCGCUCUGUUC", "RBNS enrichment (R)": 0.449}
{"data": "Block 3", "target": "Sal-like protein 4, full length isoform A (SALL4, Homo sapiens, UniProt Q9UJQ4, residues 1-1053)", "method": "universal PBM", "molecule type": "double-stranded DNA, one strand shown", "matrix": "in vitro", "concentration": "600 nM", "notes": "8-mer, flanks averaged, mean of replicates", "reading": "higher = stronger binding", "UniProt Q9UJQ4, sequence (whole entry, looked up)": "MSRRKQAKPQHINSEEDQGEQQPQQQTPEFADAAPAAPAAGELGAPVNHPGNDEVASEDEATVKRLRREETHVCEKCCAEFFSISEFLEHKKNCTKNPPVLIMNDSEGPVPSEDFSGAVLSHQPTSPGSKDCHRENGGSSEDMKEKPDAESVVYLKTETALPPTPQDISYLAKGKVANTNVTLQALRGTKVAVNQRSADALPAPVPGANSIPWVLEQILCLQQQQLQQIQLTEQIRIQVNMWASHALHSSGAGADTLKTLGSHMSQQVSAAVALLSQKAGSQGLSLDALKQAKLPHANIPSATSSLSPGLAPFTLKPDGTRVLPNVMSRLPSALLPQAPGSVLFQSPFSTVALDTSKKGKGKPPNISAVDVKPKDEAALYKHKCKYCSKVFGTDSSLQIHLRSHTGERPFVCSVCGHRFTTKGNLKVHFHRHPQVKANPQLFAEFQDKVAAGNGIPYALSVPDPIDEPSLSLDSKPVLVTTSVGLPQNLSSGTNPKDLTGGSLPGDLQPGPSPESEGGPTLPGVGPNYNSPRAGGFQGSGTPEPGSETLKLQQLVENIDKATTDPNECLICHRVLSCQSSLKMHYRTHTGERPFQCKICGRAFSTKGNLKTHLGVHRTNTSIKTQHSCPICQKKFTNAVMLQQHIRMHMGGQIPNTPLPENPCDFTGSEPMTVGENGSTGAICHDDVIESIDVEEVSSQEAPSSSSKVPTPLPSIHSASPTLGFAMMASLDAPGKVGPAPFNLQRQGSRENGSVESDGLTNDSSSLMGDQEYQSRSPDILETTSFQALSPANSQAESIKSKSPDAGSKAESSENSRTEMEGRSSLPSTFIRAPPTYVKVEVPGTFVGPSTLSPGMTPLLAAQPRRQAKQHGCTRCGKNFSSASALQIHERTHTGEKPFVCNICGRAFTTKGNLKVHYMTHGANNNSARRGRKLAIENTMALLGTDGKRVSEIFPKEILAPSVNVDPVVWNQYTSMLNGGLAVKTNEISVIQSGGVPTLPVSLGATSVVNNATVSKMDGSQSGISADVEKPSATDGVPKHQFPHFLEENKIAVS"}
{"Oligonucleotide": "AAACAGGT", "E-score": 0.076}
{"Oligonucleotide": "GAGTTGGC", "E-score": -0.197}
{"Oligonucleotide": "AACGCGGG", "E-score": -0.223}
{"Oligonucleotide": "CTTGGAGC", "E-score": -0.258}
{"Oligonucleotide": "CTTCCGAA", "E-score": 0.0718}
{"Oligonucleotide": "CTTGTGGC", "E-score": -0.214}
{"Oligonucleotide": "GCAGGAAA", "E-score": -0.0334}
{"Oligonucleotide": "TGGTAGAA", "E-score": 0.000155}
{"Oligonucleotide": "CCACCAGC", "E-score": -0.195}
{"Oligonucleotide": "TGGCGTAA", "E-score": 0.0368}
{"Oligonucleotide": "GTATACGA", "E-score": 0.00719}
{"Oligonucleotide": "CGGAAGTA", "E-score": -0.0524}
{"Oligonucleotide": "CGCAGGAG", "E-score": -0.145}
{"Oligonucleotide": "AAGGAACC", "E-score": -0.121}
{"Oligonucleotide": "AGACGTTA", "E-score": 0.0787}
{"Oligonucleotide": "GGTAACGA", "E-score": -0.00221}
{"Oligonucleotide": "CAGTCAAA", "E-score": 0.0407}
{"Oligonucleotide": "ACATTGGG", "E-score": -0.0361}
{"Oligonucleotide": "GGTCCGTA", "E-score": -0.207}
{"Oligonucleotide": "CTCTTAAA", "E-score": 0.184}
{"Oligonucleotide": "CAAGGTGC", "E-score": -0.194}
{"Oligonucleotide": "ACCGTCAG", "E-score": -0.252}
{"Oligonucleotide": "GTCGGTGA", "E-score": -0.224}
{"Oligonucleotide": "AATCCGAT", "E-score": 0.152}
{"Oligonucleotide": "GACTCCGC", "E-score": -0.309}
{"data": "Block 4", "target": "Histone acetyltransferase KAT6A, both winged helices, GST fusion (KAT6A, Homo sapiens, UniProt Q92794, residues 1-181)", "method": "protein binding microarray", "molecule type": "double-stranded DNA, one strand shown", "matrix": "in vitro", "concentration": "not given", "notes": "8-mer, flanks averaged, mean of 2 arrays, mostly near background", "baseline": "not given", "reading": "higher = stronger binding", "Residues (chain)": "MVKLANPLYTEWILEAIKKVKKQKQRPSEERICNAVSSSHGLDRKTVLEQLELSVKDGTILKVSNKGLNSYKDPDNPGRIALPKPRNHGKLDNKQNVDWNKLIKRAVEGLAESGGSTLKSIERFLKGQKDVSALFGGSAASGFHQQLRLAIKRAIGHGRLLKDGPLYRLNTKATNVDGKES"}
{"Oligonucleotide": "CCATCCAA", "E-score": -0.117}
{"Oligonucleotide": "GTCACGAA", "E-score": -0.0271}
{"Oligonucleotide": "AGATAGGA", "E-score": -0.232}
{"Oligonucleotide": "GGTGTTGA", "E-score": -0.0546}
{"Oligonucleotide": "CGCCTCCA", "E-score": 0.0553}
{"Oligonucleotide": "GTCAGTGA", "E-score": -0.0649}
{"Oligonucleotide": "ATTCACAC", "E-score": -0.105}
{"Oligonucleotide": "GCTGCACA", "E-score": 0.0284}
{"Oligonucleotide": "CCCTCCCA", "E-score": -0.0923}
{"Oligonucleotide": "ATGACATG", "E-score": 0.0444}
{"Oligonucleotide": "CGCAGGAA", "E-score": 0.0481}
{"Oligonucleotide": "CATGGGCA", "E-score": -0.0561}
{"Oligonucleotide": "CGCCGCAG", "E-score": 0.127}
{"Oligonucleotide": "ATCCAACA", "E-score": -0.0907}
{"Oligonucleotide": "GAGAATAC", "E-score": -0.0144}
{"Oligonucleotide": "TAGCGAGA", "E-score": 0.0491}
{"Oligonucleotide": "CCGGGAGA", "E-score": 0.172}
{"Oligonucleotide": "AGGCGGCA", "E-score": 0.138}
{"Oligonucleotide": "GTGCGACA", "E-score": 0.128}
{"Oligonucleotide": "ACGTATGA", "E-score": 0.0436}
{"Oligonucleotide": "GCCGCACA", "E-score": 0.192}
{"Oligonucleotide": "AAAGCTCA", "E-score": -0.189}
{"Oligonucleotide": "AGAACCAC", "E-score": -0.173}
